Published values gathered from unrelated publications.
Every numbered part comes from another study and shows a few of its results, in no order.

Block 1
Target: Fragile X messenger ribonucleoprotein 1, C-terminal low-complexity region (Fmr1, Mus musculus, UniProt P35922)
Technique: RNA Bind-n-Seq
Molecule type: RNA
Sample: in vitro
Tested at: 200 nM
Setting: whole 134-nt RNA, ends assumed
Added: 150 mM KCl
Relative to: input library
Direction: higher = stronger binding
Measurement: log2 enrichment
Shared flanks, not repeated: GGGAGUUCUACAGUCCGACGAUC … UGGAAUUCUCGGGUGUCAAGG
CUCAAGUCCUGUGCUACACAUCGUAUGUACCGAAUCGGGAAGGGGAAGGGAAGGAAAGUAUUAUGUUACGCCGUUCGGAUCUGCACUUCC: -0.158
AGUCCUGUGCUACACAUCGUAUGUACCGAAUCGGAAAAAAAGGAAAAAAAGGAAAGGAAAGUAUUAUGUUACGCCGUUCGGAUCUGCACU: -1.09
AAGUCCUGUGCUACACAUCGUAUGUACCGAAUCGGAAAAAGGUUUGGAAAAAAAGGAAAGUAUUAUGUUACGCCGUUCGGAUCUGCACUU: -1.33
CAAGUCCUGUGCUACACAUCGUAUGUACCGAAUCGGUUUUGGGUUUUGGGUUUUGGAAAGUAUUAUGUUACGCCGUUCGGAUCUGCACUU: -0.782
CAAGUCCUGUGCUACACAUCGUAUGUACCGAAUCGGGAAAGGGGAAAGGAAAGGGGAAAGUAUUAUGUUACGCCGUUCGGAUCUGCACUU: 0.495
UCCCGACAUCUGUGGCCCUGGCACCAAGAAGGUUCAUGUCAUCUUCAACUACAAGGGCAAGAACGUGCUGAUCAACAAGGACAUCCGUUG: -0.307
UGGCCCUGGUGGCAUGCGGGGAGGAUGAGGUGGCCUCAUGGAUCGUGGUGGUCCCGGUGGAAUGUUCAGAGGUGGCCGUGGUGGAGACAG: 1.95e-05
ACCAUGCAGGUGGGCAUCUUUGGGAAGUGGGGCAAGGGGGGGAUAGGGAGGGGGGUAACACUUUGGGAACAGGUGGUUCCAGGUCGUUUC: 0.498
UCCUGUGCUACACAUCGUAUGUACCGAAUCGGGCCCCCCGGGCCCCCCGGCCCCCCGGGGAAAGUAUUAUGUUACGCCGUUCGGAUCUGC: -0.158
AAGUCCUGUGCUACACAUCGUAUGUACCGAAUCGGGGCCCGGGCCCGGGGCCCGGGAAAGUAUUAUGUUACGCCGUUCGGAUCUGCACUU: -0.856
CAAGUCCUGUGCUACACAUCGUAUGUACCGAAUCGGGGUUUGGGUUUGGGUUUGGAAAGUAUUAUGUUACGCCGUUCGGAUCUGCACUUC: -0.0579
CUGUGCUACACAUCGUAUGUACCGAAUCGGGGUUUUUUUGGGGAAAAAGGGGUUUUUGGGGAAAGUAUUAUGUUACGCCGUUCGGAUCUG: 0.0694
AGUCACUUUUUAAUUUUAUUUAUUAUUUCUCCUCUUAGACCGCAGGAUGGAAACAAGCCCACUGAGACUAGUCAACCUCAAUCUAGCACA: 0.94
ACCAUGCAGGUGGGCAUCGUUGGGAAGUGGGGCAAGGGGGGGAUAGGGAGGGGGGUAACACUUUGGGAACAGGUGGUCCCAGGUCGUUUC: 0.754

Block 2
Target: Histone acetyltransferase KAT6A, both winged helices, GST fusion (KAT6A, Homo sapiens, UniProt Q92794, residues 1-181)
Technique: protein binding microarray
Molecule type: double-stranded DNA, one strand shown
Sample: in vitro
Tested at: not given
Setting: 8-mer, flanks averaged, mean of 2 arrays, mostly near background
Relative to: not given
Direction: higher = stronger binding
Measurement: E-score
Residues (chain): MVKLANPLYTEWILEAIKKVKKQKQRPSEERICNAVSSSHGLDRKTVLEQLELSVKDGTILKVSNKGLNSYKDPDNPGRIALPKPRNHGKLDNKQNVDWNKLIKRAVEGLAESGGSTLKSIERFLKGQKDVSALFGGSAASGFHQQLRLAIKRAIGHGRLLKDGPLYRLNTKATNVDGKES
TCGCCACA: -0.0566
AGAGAGTG: -0.1
CGCGCACG: 0.374
AAGGAAGG: -0.198
ATTCTAGG: -0.0794
GTAACGTA: 0.0212
AAATTCCT: -0.0901
GGTAATAA: -0.00351
ACTTCCAC: -0.101
AATTTTAG: -0.0812
ACGGTAGG: 0.054
GACGCAAA: 0.133
AGGCCCTA: -0.191
CGTCGGAC: 0.221
ATCTTGAC: -0.156
GCCTTAGA: 0.0943
ACCTTCAA: -0.177
GGCAAGCA: -0.0808
CTCTTACC: 0.0196
GAGTCGAA: -0.15
TCTCGTAA: 0.00402
GGCATTTA: -0.0537
ACTGTAAA: -0.0328
TAGGCACA: -0.0848
ATATCGGG: 0.073

Block 3
Target: Interferon regulatory factor 5, full length, phosphomimetic (IRF5, Homo sapiens, UniProt Q13568-2, residues 1-514, S451D/S453D/S456D/S462D)
Technique: protein-binding microarray
Molecule type: double-stranded DNA, one strand shown
Sample: in vitro
Tested at: 940 nM top
Setting: 60-bp whole probe
Added: salmon DNA 0.4 mg/ml
Relative to: random background probes
Direction: higher = stronger binding
Measurement: fitted relative affinity
Shared flanks, not repeated: GCCTAGCAC … GTCTTGATTCGCTTGACGCTGCTG
GACGGTCTCCTACTGCTAACGTGCTAG: -0.182 z-score
TTAGGTGTCCTTATCCTTTAGTGCTAG: -0.0591 z-score
TCTGTTTTTGCTTTCCTTTAGTGCTAG: 2.11 z-score
TTAGATATCGGTATCGGTTAGTGCTAG: 5.44 z-score
TCATGTTTGAGTCTTCTACTGTGCTAG: -0.0636 z-score
GAACTTCTGCATTACAGCTAGTGCTAG: -0.387 z-score
TTAGGTTTCGCTTCCGGTTAGTGCTAG: 9.87 z-score
TTAGATATCGGGTTTCGACTAGTGCTA: 2.68 z-score
TTAGGATCCCTTTTCCTTTAGTGCTAG: 0.086 z-score
GACGCACTGAGACTGGAGACGTGCTAG: -0.457 z-score
AACGGTTTCGGGTTTCGGGACGTGCTA: 9.03 z-score
CTTCATGTGCCTTTATATACGTGCTAG: 0.471 z-score
GACGGACTGAGTCTCGGGACGTGCTAG: 0.806 z-score
ATAGATTTCAGACTGGATTAGTGCTAG: -0.262 z-score
CATCATTGCCTATTTTTCCCCGTGCTA: 1.23 z-score
GGGTGTGTGAGTGTGTGTGCGTGCTAG: 0.141 z-score
GTGTTCTGGGCAGCAGAGGGGTGCTAG: -0.576 z-score
TTAGGTCCCCTTATCCTTTAGTGCTAG: 0.216 z-score
TCATGTATGGATGTGTCACTGTGCTAG: 0.147 z-score
GACGATATCGGTTATCGAGACGTGCTA: 0.665 z-score
CTTTCTTTGCTTCACCCTGGGTGCTAG: 1.17 z-score
ACGCATGTGGGTTCCATCATGTGCTAG: -0.453 z-score
GACGGTTTCGGTCTCGGGATGTGCTAG: 13.3 z-score
GACGGTTTCGGTTCCTGGACGTGCTAG: 12.7 z-score

Block 4
Target: RNA binding protein fox-1 homolog 2, RRM domain, GST-SBP tag (RBFOX2, Homo sapiens, UniProt O43251-10, residues 100-194)
Technique: RNA Bind-n-Seq
Molecule type: RNA
Sample: in vitro
Tested at: 365 nM
Setting: natural RNA segment, single round, ends assumed
Relative to: no-protein control
Direction: higher = stronger binding
Measurement: RBNS enrichment (R)
Shared flanks, not repeated: GGGAGUUCUACAGUCCGACGAUC … UGGAAUUCUCGGGUGCCAA
Residues (chain): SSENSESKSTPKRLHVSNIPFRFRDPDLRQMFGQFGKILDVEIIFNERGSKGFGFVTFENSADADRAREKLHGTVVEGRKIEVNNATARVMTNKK
ACCUUCCUACUAUCCUUGUCUUAUUCAUCAAGCAGAUAUUUUAGUCAAGAAUUCCAGAGAAGGCUGCUCCUAAAAUGUCUACUUGCAGCCCAAUACCAGAGCAUAAACUA: 0.313
CGUGGUCCUUAGGCUUACAAUGUGCACUGAAUCGUUUCAUGUAAGAAUCCAAAGUGGACACCAUUAACAGGUCUUUGAAAUAUGCAUGUACUUUAUAUUUUCUAUAUUUG: 20.5
UUAAGUUUUAUGUGUAUUAUCUUCCCACUACCAAGAAUGGUUAUGUUUCACAGAAUACCAGUUCAGUUUGAUUUGGAAAAAGAUGCCAAACCAAAUUUAUAUGUAGUCUA: 1.2
AGCCGAAUAUUUCUACCUAAACUCUGGGUGUGACCUCAGCUCGCUUUCCUCUGAUCCACUGUCCAAGUUGGGUCACAAACAUGUCACUCAUGCAUGCCUGCACUCCAGAG: 8.79
UACACUGAGGCUUUAAAAACACAAGGUCCCCCAAGGCUUCCUAGAAAUUGAAAUCUUUGCCUAGGCAGAGAAAUUGACCUAUGGUGGCUUAUUUUAGUCUUUUAUAAAUA: 0.235
GCCUGGGAUUAUUUUUUUAAUUUUAAGUUUGCAUGAGAUAGCCUAAUAAAUGGAGGUGGGGCCAGGCAUGGUGGCUCACACGUGUAAUCCCAACACUUUGGGAGGCUGAG: 31.2
AGUGUCAGUAGCUGUCACGCGCAUUUGUGGUGCUUUGAUGUUUGCGAGUCUAACCUCCUCUCAUAAAUUUGGUCAGAUAAUUAAUUGGAACAAAGGGAAACAGAUAUUUG: 3.32
UAAAAUGAAUAGGUUUGUGUUUAUAGCCUAUAAUAACUCUAGUUGAAUCAUGUACACAGCAGGAGUGGUCACAGUAAAAACUGGUAGCAGGAAAAUUUGAAAGGGUUUGA: 0.777
CAGCUCUGGCCAAGAGUGGGACAGGGUUUUAACCACAAAUAGGAGCAGCAUGCAAUUCCUAGUGACUUGCUGCACAGUAUUGUAUCAUAAUUACAGGAAGUUUUUAUUUU: 1.76
UUCAAAACAUUUUGAAAAGCAUUUACUUUUUUGACCACGAGCCAUGAGUUUUCAAAAAAAUCGGGGGUUGUGUGGGUUUUUGGUUUUUGUUUUAGUUUUUGGUUGCGUUG: 0.629
CACCGAGUCACCUGGUGAGCCUCAGGCUGGCACACCGAAGUUGUGCCGUGCUUACGUUAUUUAUUAGCUGUAGCCAUUUCUGUCUUGGCUCUCACUUCCUCUGCCCUUCC: 0.419
GGAUCUCCUUCCCAGUUUCAGCACUUCAGUCAGGGCUGACCAACUUGAAAAGAGCCUCCGACUGUCCUCCAUCGGACAGGGGAAGAGGAGGCCGAGCCCACCCUUAGCCA: 0.507
